Results of several laboratories.
Parts stem from different laboratories: compare values within a part only. Substitutions count along the parent as printed.

Study 1
Target: Histone acetyltransferase KAT6A, both winged helices, GST fusion (KAT6A, Homo sapiens, UniProt Q92794, residues 1-181)
Method: protein binding microarray
Form: double-stranded DNA, one strand shown
Matrix: in vitro
Concentration: not given
Notes: 8-mer, flanks averaged, mean of 2 arrays, mostly near background
Reference: not given
Direction: higher = stronger binding
Residues (chain): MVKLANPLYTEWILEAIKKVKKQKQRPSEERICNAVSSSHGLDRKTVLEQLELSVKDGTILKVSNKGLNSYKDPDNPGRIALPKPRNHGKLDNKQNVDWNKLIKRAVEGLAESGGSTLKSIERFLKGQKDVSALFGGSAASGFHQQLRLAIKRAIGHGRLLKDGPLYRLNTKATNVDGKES
Oligonucleotide	E-score
TGTACGAA	0.0423
CCGTTTTA	0.137
ACCCAGGT	-0.0835
ATTTTTAC	-0.102
CTAATATC	-0.0772
CGCGCCTC	0.315
CCGAGTAG	-0.0517
CCCATGGC	-0.0499
CCTGGAAA	-0.144
ACTTCAAC	-0.119
ACAAATTC	-0.0899
AGCCAATG	-0.163
TGGTTGAA	-0.211
CCATCTAA	-0.0967
CGTTGCAC	0.0893
ACCTACCT	-0.128
ATACCATG	-0.125
AGTACGTG	-0.155
CTAATTTC	-0.0296
GATCCGAC	0.16
CAACGCAA	0.14
ATTTGGTA	-0.076
ATGTACTC	-0.00844
TAGGAACA	-0.173
CAATAGTA	-0.165

Study 2
Target: RING finger protein unkempt homolog, zinc fingers 1-6, GST-SBP tag (UNK, Homo sapiens, UniProt Q9C0B0, residues 30-357)
Sequence of UniProt Q9C0B0 (30-357, looked up): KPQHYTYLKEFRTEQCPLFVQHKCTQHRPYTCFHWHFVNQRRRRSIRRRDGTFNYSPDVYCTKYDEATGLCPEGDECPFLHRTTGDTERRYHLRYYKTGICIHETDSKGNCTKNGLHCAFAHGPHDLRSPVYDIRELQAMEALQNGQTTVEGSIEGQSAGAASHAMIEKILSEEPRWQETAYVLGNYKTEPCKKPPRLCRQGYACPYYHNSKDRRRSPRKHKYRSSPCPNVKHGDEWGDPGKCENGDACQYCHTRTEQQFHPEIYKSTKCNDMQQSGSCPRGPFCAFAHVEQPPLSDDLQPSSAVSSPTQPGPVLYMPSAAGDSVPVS
Method: RNA Bind-n-Seq
Form: RNA
Matrix: in vitro
Concentration: not given
Notes: RNA with constant flanks, human and mouse sites, ends assumed
Reference: input RNA pool
Direction: higher = stronger binding
Shared flanks, not repeated: GGGAGUUCUACAGUCCGACGAUC … CAACAGAGGAUUGAGCAUCA
Oligonucleotide	bound/input enrichment
AGGAUGAACCGGACAGAUUCCGAAAUAUAUGAGGAUGCUGUAGAACUUCAGCAGUUUUUUAUUAGAAUUCGUGAUGAACUCUGCAAAAAUGGAGAGAUCCUUCUUUCUCCAGCACUCAGC	0.391 ratio
GUUGUGCAGUAGAGUUCAGACUUCUCAUCCAAUCUUAUAUUGUAGGCAUUUCUCAAGUGUUUUAGAUAUUAAUAACUAACAUUGGGAUUUUACUUUGCCAGCCCCAGCCUUCAGAACUCC	1.15 ratio
GGAAACGAAUGAGGAACCACCUCCUCCUGCUGUUCAAGUACAGGGGCCUGGUGCGCAAAGGGAAGAAAAGCAAAAGACGAAAAUGGCUAAAUUUAAGAUCCGUCCAGCCACUGCCUCUGA	0.108 ratio
UUACAGUCAUUGAUGGACUCUAUUUUUUUAUUAUUACUUGGACCUUGGUCGUUUUUAUACUAGCAAAAAAAUGUCUUGUUUUAAUUUGUGUUUUUUGGGGGGGCGGGUGGGCGGGCGGGA	5.17 ratio
AUUAUCACAGAAGAACCUGAGAUUGGCAAUAUAGAAAAACCAGUAGAAAUUUUUCAUAUAAUAGAACAUUUUUGUCUUGGUAGAAGACGCCUUCAUCUCUUUGGGAGAGAUAGCACUAUC	32.2 ratio
CUUAAAAACAAAGAUCCCAAGAUGGCUCGAGUUGCACUGGAAUCUCUCUACAGAUUACUUUGGGUUUACAUGAUUCGAAUUAAAUGUGAAAGCAACACAGCUACUCAGAGCCGACUUAUA	0.219 ratio
AACAACUGGAAGAAUUUUUAGCUAAUAUUGGAACAAGCGUUCAGAAUGUUCGCAGGGAAAUGGACAGUGAUAUAGAGACCAUGCAACAGACAAUAGAGGAUUUGGAAGUAGCCAGUGAUC	3.12 ratio
GUUAGACGUGGCCCUGUAUUUGGAAGUCUCUGACGGGUUGACAGUAUUAACACUCAAUUGUAGUUUACAGUAUUUAUACAUGACAGCCAUACAUGACGCCAAGCCAUGGGUUCUCAGUUU	0.262 ratio
UCUGGUGGUGAAUCCUCCAUAGUCUGGAGAUCUCAGCCCUGCUGAGCUGAUGAUGCUGACUAUAGGAGAUGUUAUUAAACAACUGAUUGAAGCCCACGAGCAGGGGAAAGACAUCGAUCU	0.163 ratio
GUUUCUUCUUCUGGACAGAUAAGGGUACAUUUUUGUGCUGAUAAAGUGAAUGCUGCAAGGGGAUUUAAUGCUACUUACCAAGUAGAUGGGUUCUGUUUGCCAUGGGAAAUACCCUGUGGA	0.27 ratio
CUCUCCACGGAAAAUUUCCAGAUCAAACAGGAUUCCUCUACCGGCUCGUACUCCAUCAAUUUCGUUCAAAAUCCAAAUAAUAACAGAUAACAAAGAUAACAAAAGCUUUACAAGCUGACU	0.594 ratio

Study 3
Target: UBE2Q1 UBC core domain (UniProt Q7Z7E8)
Sequence of UniProt Q7Z7E8 (whole entry, looked up): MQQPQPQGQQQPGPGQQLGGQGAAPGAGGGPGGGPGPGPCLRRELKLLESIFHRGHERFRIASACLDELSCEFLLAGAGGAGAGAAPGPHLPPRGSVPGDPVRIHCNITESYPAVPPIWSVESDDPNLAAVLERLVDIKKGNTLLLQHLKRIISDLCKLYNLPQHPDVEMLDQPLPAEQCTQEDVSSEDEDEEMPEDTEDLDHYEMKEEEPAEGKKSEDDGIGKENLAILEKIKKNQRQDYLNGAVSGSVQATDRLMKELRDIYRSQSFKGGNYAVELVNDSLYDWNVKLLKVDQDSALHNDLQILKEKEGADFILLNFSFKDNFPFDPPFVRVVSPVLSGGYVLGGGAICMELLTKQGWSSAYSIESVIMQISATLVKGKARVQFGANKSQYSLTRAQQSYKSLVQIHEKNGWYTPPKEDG
Method: yeast two-hybrid
Matrix: yeast
Notes: mostly zero background
Reference: not given
Direction: higher = stronger interaction
B1: DZIP3 RING domain (UniProt Q86Y13); chain PDEEEEEEEPCVICHENLSPENLSVLPCAHKFHAQCIRPWLMQQGTCPTCRLHVLLPEEFP
B2: RNF121 RING domain (UniProt Q9H920); chain MPTKHLSDSVCAVCGQQIFVDVSEEGIIENTYRLSCNHVFHEFCIRGWCIVGKKQTCPYCKEKVDLKRMFS
B3: SYTL4 RING domain (UniProt Q96C24); chain RGSQHYSDRTCARCQESLGRLSPKTNTCRGCNHLVCRDCRIQESNGTWRCKVCAKEIELKKAT
B4: RBCK1 RING domain (UniProt Q9BYM8); chain SLVLNTEPAECPVCYSVLAPGEAVVLRECLHTFCRECLQGTIRNSQEAEVSCPFIDNTYSCSGKLLEREIK
B5: RNF19A RING domain (UniProt Q9NV58); chain ISKQIGDFIECPLCLLRHSKDRFPDIMTCHHRSCVDCLRQYLRIEISESRVNISCPECTERFNPHDIR
B6: ZMIZ2 RING domain (UniProt Q8NF64); chain GTIPGTPGPNGEDGVEQTAIKVSLKCPITFRRIQLPARGHDCRHIQCFDLESYLQLNCERGTWRCPVCNKTALLEGLEVDQYMLGILIYIQNSDYEEITIDPTCSWK
Sequence	lacZ reporter activity
FDGDVDPDLKCALCHKVLEDPLTTPCGHVFCAGCVLPWVVQEGSCPARCRGRLSAKELN (PDZRN3 RING domain (UniProt Q9UPQ7))	0
B1 (DZIP3 RING domain)	0
KETIKKTTKPCPRCHVPVEKNGGCMHMKCPQPQCRLEWCWNCGCEWNRVCMG (PRKN RING domain (UniProt O60260))	0
B2 (RNF121 RING domain)	0
AMYLQENGIDCPKCKFSYALARGGCMHFHCTQCRHQFCSGCYNAFYAKNKC (RNF31 RING domain (UniProt Q96EP0))	0
B3 (SYTL4 RING domain)	0
NLSELTPYILCSICKGYLIDATTITECLHTFCKSCIVRHFYYSNRCPKCNIVVHQTQPLY (PCGF6 RING domain (UniProt Q9BYE7))	0
B4 (RBCK1 RING domain)	0
B5 (RNF19A RING domain)	0
B6 (ZMIZ2 RING domain)	0

Study 4
Target: CCNB2, cyclin fold, Cln2 fusion (human)
Method: yeast growth competition, sequencing
Matrix: yeast
Notes: weak parent motif
Reference: not given
Direction: higher = stronger binding
Parent: RB1 docking peptide (human); PKPLKKLRFDIEG
Substitution	normalised enrichment score
PKPLKKLAFDIEG [R8A]	-0.128
PKPLKKLRFDKEG [I11K]	0.247
PKPLKGLRFDIEG [K6G]	0.0795
PKPLKKMRFDIEG [L7M]	0.674
GKPLKKLRFDIEG [P1G]	0.368
PKPLKKLRFDIEF [G13F]	0.481
PKPLKALRFDIEG [K6A]	0.711
RKPLKKLRFDIEG [P1R]	0.28
PKPLKKLRFDIEA [G13A]	0.69

Excerpt of the above (study 1):
Oligonucleotide	E-score
ACAAATTC	-0.0899
TGTACGAA	0.0423
TGGTTGAA	-0.211
CCGTTTTA	0.137
CGCGCCTC	0.315
